Measurements collected from several papers.
Every numbered part comes from another study and shows a few of its results, in no order.
Chain of UniProt Q9UF33 (whole entry, looked up): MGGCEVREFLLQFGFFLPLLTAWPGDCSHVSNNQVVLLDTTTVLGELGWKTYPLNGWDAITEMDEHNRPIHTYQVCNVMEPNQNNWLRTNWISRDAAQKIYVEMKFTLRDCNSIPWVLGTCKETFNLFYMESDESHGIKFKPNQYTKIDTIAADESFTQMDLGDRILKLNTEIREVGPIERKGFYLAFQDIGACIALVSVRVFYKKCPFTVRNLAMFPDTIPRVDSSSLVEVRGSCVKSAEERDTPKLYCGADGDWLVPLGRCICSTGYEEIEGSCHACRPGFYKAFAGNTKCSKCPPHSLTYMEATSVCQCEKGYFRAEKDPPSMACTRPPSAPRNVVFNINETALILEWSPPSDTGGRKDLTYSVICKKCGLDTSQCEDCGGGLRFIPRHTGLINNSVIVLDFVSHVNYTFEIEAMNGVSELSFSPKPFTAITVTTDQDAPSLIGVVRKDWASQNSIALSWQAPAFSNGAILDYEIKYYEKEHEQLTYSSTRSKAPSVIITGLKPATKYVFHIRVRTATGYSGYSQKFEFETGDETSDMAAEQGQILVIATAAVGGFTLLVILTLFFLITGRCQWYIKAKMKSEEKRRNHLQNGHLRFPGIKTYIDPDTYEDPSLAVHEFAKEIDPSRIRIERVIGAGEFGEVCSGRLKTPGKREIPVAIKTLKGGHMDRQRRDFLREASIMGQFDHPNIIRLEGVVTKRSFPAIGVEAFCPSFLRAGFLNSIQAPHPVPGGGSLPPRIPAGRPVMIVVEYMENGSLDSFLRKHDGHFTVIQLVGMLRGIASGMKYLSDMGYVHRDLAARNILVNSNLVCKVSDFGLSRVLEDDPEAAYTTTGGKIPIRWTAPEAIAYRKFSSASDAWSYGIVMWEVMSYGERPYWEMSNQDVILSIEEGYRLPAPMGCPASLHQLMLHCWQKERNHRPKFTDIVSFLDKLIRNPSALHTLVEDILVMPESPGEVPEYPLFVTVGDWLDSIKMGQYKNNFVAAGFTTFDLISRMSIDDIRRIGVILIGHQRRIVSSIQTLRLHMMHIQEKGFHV
Chain of UniProt Q9Y5N1 (whole entry, looked up): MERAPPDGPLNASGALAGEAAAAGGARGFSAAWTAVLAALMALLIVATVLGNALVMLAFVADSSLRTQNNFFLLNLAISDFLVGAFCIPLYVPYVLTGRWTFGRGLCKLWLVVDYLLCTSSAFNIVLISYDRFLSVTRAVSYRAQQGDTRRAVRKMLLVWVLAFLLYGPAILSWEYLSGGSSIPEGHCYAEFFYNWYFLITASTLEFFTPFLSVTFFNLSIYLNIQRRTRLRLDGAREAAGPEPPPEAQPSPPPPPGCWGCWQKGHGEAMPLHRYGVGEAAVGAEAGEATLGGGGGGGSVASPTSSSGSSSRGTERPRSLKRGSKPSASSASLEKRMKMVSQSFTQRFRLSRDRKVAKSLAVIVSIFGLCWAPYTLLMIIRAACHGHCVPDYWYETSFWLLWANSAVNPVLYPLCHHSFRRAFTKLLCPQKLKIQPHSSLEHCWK
Chain of UniProt P25021 (whole entry, looked up): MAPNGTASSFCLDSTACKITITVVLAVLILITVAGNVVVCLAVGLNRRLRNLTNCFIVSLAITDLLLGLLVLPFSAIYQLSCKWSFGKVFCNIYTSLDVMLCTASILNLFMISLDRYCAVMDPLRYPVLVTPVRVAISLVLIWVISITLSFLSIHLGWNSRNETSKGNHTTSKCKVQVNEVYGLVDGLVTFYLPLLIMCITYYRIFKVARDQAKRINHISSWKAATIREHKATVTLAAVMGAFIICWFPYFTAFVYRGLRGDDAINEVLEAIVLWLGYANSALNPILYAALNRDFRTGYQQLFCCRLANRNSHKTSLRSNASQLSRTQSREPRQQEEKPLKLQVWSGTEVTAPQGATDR
Chain of UniProt P41279 (whole entry, looked up): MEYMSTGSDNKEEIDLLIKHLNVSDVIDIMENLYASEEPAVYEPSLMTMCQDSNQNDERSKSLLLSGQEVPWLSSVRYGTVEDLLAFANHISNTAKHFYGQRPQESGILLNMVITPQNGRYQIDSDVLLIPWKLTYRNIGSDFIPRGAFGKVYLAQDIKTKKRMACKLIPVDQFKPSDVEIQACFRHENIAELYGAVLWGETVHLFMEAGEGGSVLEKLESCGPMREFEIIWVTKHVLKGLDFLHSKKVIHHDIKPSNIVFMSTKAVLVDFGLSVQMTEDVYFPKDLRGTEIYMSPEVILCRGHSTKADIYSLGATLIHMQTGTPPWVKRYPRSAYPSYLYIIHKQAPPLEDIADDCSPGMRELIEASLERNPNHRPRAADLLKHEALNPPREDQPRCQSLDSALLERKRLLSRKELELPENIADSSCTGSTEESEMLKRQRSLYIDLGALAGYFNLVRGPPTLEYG
Chain of UniProt P35368 (whole entry, looked up): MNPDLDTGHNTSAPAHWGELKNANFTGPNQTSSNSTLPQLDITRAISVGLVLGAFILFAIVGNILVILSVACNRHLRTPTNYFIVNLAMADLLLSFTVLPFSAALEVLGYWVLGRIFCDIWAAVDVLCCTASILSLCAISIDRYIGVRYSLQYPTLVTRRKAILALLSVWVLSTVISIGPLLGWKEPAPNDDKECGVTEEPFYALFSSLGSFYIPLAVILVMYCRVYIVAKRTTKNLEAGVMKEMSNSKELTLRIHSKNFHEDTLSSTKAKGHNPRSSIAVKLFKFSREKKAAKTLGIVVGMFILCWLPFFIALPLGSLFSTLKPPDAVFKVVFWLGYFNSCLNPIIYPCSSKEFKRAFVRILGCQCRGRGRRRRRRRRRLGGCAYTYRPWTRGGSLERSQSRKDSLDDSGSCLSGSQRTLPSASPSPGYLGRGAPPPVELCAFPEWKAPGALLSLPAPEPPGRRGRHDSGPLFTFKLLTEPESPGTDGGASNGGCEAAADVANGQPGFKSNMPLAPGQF
Chain of UniProt P25100 (whole entry, looked up): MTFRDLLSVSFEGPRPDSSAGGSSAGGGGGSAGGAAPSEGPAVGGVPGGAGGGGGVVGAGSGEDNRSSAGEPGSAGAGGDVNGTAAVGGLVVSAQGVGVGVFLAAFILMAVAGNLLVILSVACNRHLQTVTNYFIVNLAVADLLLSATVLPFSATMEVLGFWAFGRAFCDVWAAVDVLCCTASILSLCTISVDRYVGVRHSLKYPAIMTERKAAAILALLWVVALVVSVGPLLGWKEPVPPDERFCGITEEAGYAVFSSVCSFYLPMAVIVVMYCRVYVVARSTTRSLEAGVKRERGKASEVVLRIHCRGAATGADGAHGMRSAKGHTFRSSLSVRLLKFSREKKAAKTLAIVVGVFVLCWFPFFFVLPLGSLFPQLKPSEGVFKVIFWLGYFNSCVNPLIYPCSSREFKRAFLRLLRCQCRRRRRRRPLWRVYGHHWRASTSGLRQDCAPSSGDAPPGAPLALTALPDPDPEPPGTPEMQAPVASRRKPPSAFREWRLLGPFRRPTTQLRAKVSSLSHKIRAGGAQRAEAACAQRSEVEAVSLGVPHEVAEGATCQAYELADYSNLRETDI
Chain of UniProt P35367 (whole entry, looked up): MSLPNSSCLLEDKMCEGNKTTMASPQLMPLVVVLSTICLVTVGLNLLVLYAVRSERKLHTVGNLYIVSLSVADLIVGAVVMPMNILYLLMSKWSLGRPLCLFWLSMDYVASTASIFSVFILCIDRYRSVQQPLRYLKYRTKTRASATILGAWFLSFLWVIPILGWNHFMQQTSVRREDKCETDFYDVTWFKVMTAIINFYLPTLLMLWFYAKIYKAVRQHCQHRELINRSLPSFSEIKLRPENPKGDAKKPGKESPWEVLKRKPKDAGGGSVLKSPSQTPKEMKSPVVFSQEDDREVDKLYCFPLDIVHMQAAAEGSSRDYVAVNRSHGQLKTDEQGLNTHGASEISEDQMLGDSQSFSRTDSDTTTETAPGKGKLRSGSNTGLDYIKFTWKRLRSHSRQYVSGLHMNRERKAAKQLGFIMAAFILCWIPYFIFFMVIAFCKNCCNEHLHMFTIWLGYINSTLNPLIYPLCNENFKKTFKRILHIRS
Chain of UniProt P35462 (whole entry, looked up): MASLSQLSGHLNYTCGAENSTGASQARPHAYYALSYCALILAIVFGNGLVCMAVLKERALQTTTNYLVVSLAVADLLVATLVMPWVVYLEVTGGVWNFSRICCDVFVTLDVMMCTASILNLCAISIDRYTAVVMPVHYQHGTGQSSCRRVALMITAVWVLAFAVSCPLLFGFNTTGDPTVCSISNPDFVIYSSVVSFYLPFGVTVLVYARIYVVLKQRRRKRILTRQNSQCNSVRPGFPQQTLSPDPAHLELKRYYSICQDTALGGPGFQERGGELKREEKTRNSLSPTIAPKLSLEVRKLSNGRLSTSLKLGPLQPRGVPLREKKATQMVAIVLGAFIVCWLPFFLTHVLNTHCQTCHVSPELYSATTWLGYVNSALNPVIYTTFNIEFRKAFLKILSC

Set 1 — action: agonist
Target: Beta-1 adrenergic receptor (ADRB1, Homo sapiens, UniProt P08588)
Chain of UniProt P08588 (whole entry, looked up): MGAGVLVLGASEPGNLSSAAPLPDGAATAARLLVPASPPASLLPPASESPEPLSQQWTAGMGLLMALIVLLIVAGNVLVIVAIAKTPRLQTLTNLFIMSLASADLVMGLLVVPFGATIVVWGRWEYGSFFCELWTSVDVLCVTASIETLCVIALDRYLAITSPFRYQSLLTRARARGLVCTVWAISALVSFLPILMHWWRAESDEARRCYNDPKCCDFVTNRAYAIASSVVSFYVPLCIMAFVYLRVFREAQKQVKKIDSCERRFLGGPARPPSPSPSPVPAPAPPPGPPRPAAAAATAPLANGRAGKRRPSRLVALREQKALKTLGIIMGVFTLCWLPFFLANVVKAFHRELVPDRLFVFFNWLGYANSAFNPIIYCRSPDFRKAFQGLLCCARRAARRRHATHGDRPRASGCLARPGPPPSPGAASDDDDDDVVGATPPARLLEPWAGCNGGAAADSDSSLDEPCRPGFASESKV
`COc1ccccc1-c1nc(N2CCOCC2)cc2c1CN(Cc1cnn(C)c1)C2=O` has an EC50 of no less than 100 µM.
`O=c1cc(N2CCNCC2)oc2c(-c3ccccc3)cccc12` gave an EC50 of no less than 100 µM.
For `Cc1ccc(C(=O)N2CCN(c3cccc(Cl)c3)CC2)s1`, the EC50 was no less than 100 µM.
The EC50 of `CC(C)c1ccc(Nc2n[nH]c(C(O)C3CC3)n2)cc1` (stereo not shown) is reported as no less than 100 µM.
The EC50 of `O=C(Nc1ccc([C@@H](O)[C@H]2COCC(=O)N2CCCc2ccccc2)cc1)c1ccco1` is reported as no less than 100 µM.
`COc1ccccc1N1CCN(C(=O)[C@@H]2Cc3c[nH]c4cccc(c34)[C@H](CC(C)C)N2)CC1` has an EC50 of no less than 100 µM.
`Cc1cccc(OCc2cc(=O)n3cccc(C)c3n2)c1C` gave an EC50 of no less than 100 µM.
The EC50 of `Clc1nc(NCc2cccs2)c2[nH]cnc2n1` is reported as no less than 100 µM.
`Nc1nc(N)c2nc(-c3cccc(O)c3)c(-c3cccc(O)c3)nc2n1` has an EC50 of no less than 100 µM.
`O=c1cc(-c2ccccn2)oc2c(-c3cn[nH]c3)nccc12` has an EC50 of no less than 100 µM.
`Cn1c(=O)c2c(nc(N3CCNCC3)n2Cc2ccccc2)n(C)c1=O` has an EC50 of no less than 100 µM.
`O=C(CCc1ccccc1)Nc1ccc([C@@H](O)[C@H]2COCC(=O)N2Cc2ccccc2F)cc1` gave an EC50 of no less than 100 µM.
`COc1ccccc1N1CCN(CCC(=O)NC2CCCc3ccccc32)CC1` (stereo not shown) has an EC50 of no less than 100 µM.
The EC50 of `COc1ccccc1N1CCN(c2ncnc3c2CN(C)CC3)CC1` is reported as no less than 100 µM.
The EC50 of `COc1ccccc1-c1n[nH]c2ncc(-c3cccc(F)c3)nc12` is reported as no less than 100 µM.
With `COc1cc(-c2cc(-c3cccs3)nc3c(C)noc23)ccn1` the EC50 was no less than 100 µM.

Set 2 — read-out: cell-free assay; tested at: 10 µM
SMILES: C[C@H](c1ccc(F)cc1)N(Cc1ccc(Cl)c(C(=O)O)c1)C(=O)c1cnc2ccccc2c1
DRD2 (Homo sapiens, UniProt P14416) — inhibition: -0.95%.
For HRH4 (Homo sapiens, UniProt Q9H3N8): inhibition read 3.41%.
It gave -1.1% for inhibition (CHRM5 (Homo sapiens, UniProt P08912)).
For HRH3 (Homo sapiens, UniProt Q9Y5N1): inhibition read -8.13%.
The inhibition was -1.36% (ADRA1B (Homo sapiens, UniProt P35368)).
HRH2 (Homo sapiens, UniProt P25021) — inhibition: -12.7%.
The inhibition was -14.1% (DRD3 (Homo sapiens, UniProt P35462)).
For ADRA1D (Homo sapiens, UniProt P25100): inhibition read 10.1%.
The inhibition was 14.9% (DRD4 (Homo sapiens, UniProt P21917)).
HRH1 (Homo sapiens, UniProt P35367) — inhibition: -3.13%.
For CHRM4 (Homo sapiens, UniProt P08173): inhibition read 4.42%.
The inhibition was 24.1% (ADRB2 (Homo sapiens, UniProt P07550)).

Set 3 — Compound: O=C1Nc2ccc(Cl)cc2C1=Cc1cc(Cl)c(O)c(Cl)c1; read-out: cell-free assay; tested at: 0.5 µM
It gave 99.5% for remaining signal (Cyclin-dependent kinase 2, with cyclin A (CDK2, Homo sapiens, UniProt P24941)).
It gave 72.8% for remaining signal (EPHA6 (Homo sapiens, UniProt Q9UF33)).
The remaining signal was 94.2% (PNCK (Homo sapiens, UniProt Q6P2M8)).
It gave 17.4% for remaining signal (Myosin-IIIb (MYO3B, Homo sapiens, UniProt Q8WXR4)).
For MAP3K8 (Homo sapiens, UniProt P41279): remaining signal read 93.1%.
For GRK5 (Homo sapiens, UniProt P34947): remaining signal read 95.8%.
It gave 98.2% for remaining signal (RPS6KB2 (Homo sapiens, UniProt Q9UBS0)).
MAP3K14 (Homo sapiens, UniProt Q99558) — remaining signal: 111%.

Set 4 — organism: Sarcocystis neurona; read-out: parasite activity; tested at: 10 µM; time: 96 h
`O=c1c(-c2ccccc2)c1-c1ccccc1` — result for activity class: “active”.
Under activity class, `CN(C)CCOC(c1ccc(Cl)cc1)c1ccccn1` (stereo not shown) is recorded as “inactive”.
`CO[C@@H]1[C@@H](O[C@@H]2O[C@H](C)[C@@H](O[C@H]3C[C@@](C)(O)[C@@H](OC(=O)CC(C)C)[C@H](C)O3)[C@H](N(C)C)[C@H]2O)[C@@H](CC=O)C[C@@H](C)[C@@H](O)/C=C/C=C/C[C@@H](C)OC(=O)C[C@H]1OC(C)=O` — result for activity class: “inactive”.
For `OCc1cccnc1`, activity class read “inactive”.
`CCCCC[C@H](O)/C=C/[C@H]1[C@H](O)CC(=O)[C@@H]1CCCCCCC(=O)O`: activity class “inactive”.
For `CCCN(CCC)S(=O)(=O)c1ccc(C(=O)O)cc1`, activity class read “inactive”.
For `CC[C@H](C)C(=O)O[C@H]1CCC=C2C=C[C@H](C)[C@H](CC[C@@H]3C[C@@H](O)CC(=O)O3)[C@H]21`, activity class read “inactive”.
Under activity class, `Cc1occc(=O)c1O` is recorded as “inactive”.
`NC(=O)c1ncn([C@@H]2O[C@H](CO)[C@@H](O)[C@H]2O)n1`: activity class “inactive”.
`CO/N=C(\C(=O)N[C@@H]1C(=O)N2C(C(=O)O)=C(COC(C)=O)CS[C@H]12)c1csc(N)n1` — result for activity class: “inactive”.

A few entries again (set 1):
`COc1ccccc1N1CCN(C(=O)[C@@H]2Cc3c[nH]c4cccc(c34)[C@H](CC(C)C)N2)CC1` has an EC50 of no less than 100 µM.
`Cc1cccc(OCc2cc(=O)n3cccc(C)c3n2)c1C` gave an EC50 of no less than 100 µM.
The EC50 of `Clc1nc(NCc2cccs2)c2[nH]cnc2n1` is reported as no less than 100 µM.
`Nc1nc(N)c2nc(-c3cccc(O)c3)c(-c3cccc(O)c3)nc2n1` has an EC50 of no less than 100 µM.
`O=c1cc(-c2ccccn2)oc2c(-c3cn[nH]c3)nccc12` has an EC50 of no less than 100 µM.
`Cn1c(=O)c2c(nc(N3CCNCC3)n2Cc2ccccc2)n(C)c1=O` has an EC50 of no less than 100 µM.
`O=C(CCc1ccccc1)Nc1ccc([C@@H](O)[C@H]2COCC(=O)N2Cc2ccccc2F)cc1` gave an EC50 of no less than 100 µM.
